# Experimental data gathered from unrelated publications.
# Each numbered part is a random draw from the data of one study; scales do not carry over between parts. Positions count from the first letter of the parent shown.

# Block 1 — target: CCND1, cyclin fold, Cln2 fusion (human); technique: yeast growth competition, sequencing; medium: yeast; setting: strong parent motif; reference: not given; reading: higher = stronger binding
# Starting sequence: PKN2 docking peptide (human); VSAVRKLDFSDTM
Variant,normalised enrichment score
D8V,3.64
S10N,5.39
A3E,0.0785
D11H,3.72
A3K,1.08
S10C,4.67
D11F,4.2
D11L,4.77
R5V,2.24
S10F,3.17
D8H,2.76
K6N,1.91
A3M,0.45
T12H,5.29
T12C,5.11
K6E,2.89
R5H,0.698
S2V,2.64
V4Y,1.98
F9V,0.178
D11I,4.45
S10P,4.2
L7G,-0.0297
R5A,1.95
D8W,1

# Block 2 — technique: protein binding microarray; form: double-stranded DNA, one strand shown; medium: in vitro; tested at: not given; reference: not given; reading: higher = stronger binding
# Target: Histone acetyltransferase KAT6A, winged helix 1, GST fusion (KAT6A, Homo sapiens, UniProt Q92794, residues 1-85)
# Setting: 8-mer, flanks averaged, mean of 2 arrays, mostly near background
# Residues (chain): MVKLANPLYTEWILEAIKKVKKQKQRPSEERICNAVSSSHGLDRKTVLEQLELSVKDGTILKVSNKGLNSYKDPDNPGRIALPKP
Strand,E-score
CAGGCAAC,-0.173
ATGTGCAG,-0.17
AATTGGCG,0.0457
CGTGTCCA,-0.0199
ACTTCACA,-0.246
ACGAAGAA,0.0272
AAACGCTG,-0.00125
ACCTGCTA,-0.00376
CATCGACC,-0.0912
TCGCCGCA,0.334
CATGTTCA,-0.205
GTCTGATA,-0.0418
ACAACTCG,-0.149
CTGAATGA,-0.0331
CAAAAACC,0.0508
CTCCTTAC,-0.0785
ACGAAGAC,-0.14
AGAGTAGA,-0.0694
AGTTGTCA,-0.125
GTAGAACA,-0.077
AAGGCGTA,-0.0705
ATTTACAG,-0.134
CAGAACAG,-0.149
CAATAAAG,-0.0322

# Block 3 — technique: universal PBM; form: double-stranded DNA, one strand shown; medium: in vitro; tested at: not given; reading: higher = stronger binding
# Target: Sal-like protein 4, full length isoform B (SALL4, Homo sapiens, UniProt Q9UJQ4-2, residues 1-616)
# Setting: 8-mer, flanks averaged, mean of replicates
# Construct (chain): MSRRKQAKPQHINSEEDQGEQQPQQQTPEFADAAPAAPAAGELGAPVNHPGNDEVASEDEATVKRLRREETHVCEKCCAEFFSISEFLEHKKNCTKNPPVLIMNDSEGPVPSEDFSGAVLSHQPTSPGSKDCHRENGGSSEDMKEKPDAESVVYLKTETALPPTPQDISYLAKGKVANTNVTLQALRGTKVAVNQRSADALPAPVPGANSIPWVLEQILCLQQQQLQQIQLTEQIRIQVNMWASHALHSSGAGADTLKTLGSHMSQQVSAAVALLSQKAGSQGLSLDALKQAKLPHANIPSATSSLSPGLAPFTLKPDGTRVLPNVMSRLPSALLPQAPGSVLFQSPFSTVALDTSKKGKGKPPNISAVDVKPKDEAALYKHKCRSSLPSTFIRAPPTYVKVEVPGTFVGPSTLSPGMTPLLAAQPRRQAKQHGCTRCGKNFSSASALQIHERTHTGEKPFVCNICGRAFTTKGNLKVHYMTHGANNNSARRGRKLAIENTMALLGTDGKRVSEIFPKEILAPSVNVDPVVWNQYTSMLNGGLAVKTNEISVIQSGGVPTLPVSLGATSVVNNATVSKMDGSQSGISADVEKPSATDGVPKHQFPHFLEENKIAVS
Strand,E-score
ACCATACT,0.141
AGTCAACA,0.0947
AGTCCATG,-0.0892
GCAGGAGA,-0.0694
AATAAAGC,0.262
GATGGCGA,0.038
CAGACGGC,-0.409
ACATTACC,0.078
CAGAGGAA,-0.129
ACCTGCGG,-0.283
CGATGACG,-0.15
CGCTAGGC,-0.289
GCGCGTAC,-0.115
CTGCCTCC,-0.196
ATCTGATG,0.0612
GTGGACGA,-0.172
CCTCGACG,-0.313
CGGCTGGA,-0.268
GTTACCTA,0.044
ATGAGACC,0.0268
GAAACATC,0.038
CTAAGGTA,-0.00472
ACAGATGT,0.117
AAGCGCAG,-0.238
CATGATAC,0.172

# Block 4 — technique: RNA Bind-n-Seq; form: RNA; medium: in vitro; tested at: 365 nM; reference: no-protein control; reading: higher = stronger binding
# Target: RNA binding protein fox-1 homolog 2, RRM domain, GST-SBP tag (RBFOX2, Homo sapiens, UniProt O43251-10, residues 100-194)
# Setting: natural RNA segment, single round, ends assumed
# Constant ends, left off below: GGGAGUUCUACAGUCCGACGAUC … UGGAAUUCUCGGGUGCCAA
# Residues (chain): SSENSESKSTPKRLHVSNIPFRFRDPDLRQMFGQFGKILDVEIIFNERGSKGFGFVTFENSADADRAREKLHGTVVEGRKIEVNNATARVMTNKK
Strand,RBNS enrichment (R)
UUGGAGAUGUCAGGGUCCAUAAGAUGCUUUUUUAGUCUUCAGAAUACCGAGCUACUGGUCCUAAGAUGUUUCAGACUUAAAGCAAAUGCAUGUGUUACACCCAUCCCGUU,7
AGCAAGUUUCUUCUGCAGCCCUGCCGUGCUUGAGGAAGGGCCUGAGGAGGAAGGGACACUCACUCUGGAAGCUCUGCAGCCACUCCGUGCCAGGUGCCUUAACUCUGGGA,2.73
UUUUGCUUGGGAAAAAGGAGUUUUUCUUUAGAAACAGUGCCAAGAAUGAUAUAAACUACUUUUAACUAAGAUGCCUAACAGGCUUUUAACACAGGUGUCCAUCUCCACUC,0.407
ACAGUAGAGAAACACUGUAGUUCACAGACCAUGCAACCGUGUUUCCACGAGAUGUUAUUACAACAAAUGAAGAAUUUUUUUCCUUUUUUUUCAUUUUAAUCUUUUUUGAC,0.426
CAGUGCACAGCCUGCUGUCUGCAGUCGGCCAGACCAGGCUCCUCCCCAGCACACUCCCUGUGGGAUGGCCGCUGCUCAGGACACAGUGGGACAAAGUUGGGUUGAUAGGA,1.24
CUUGUCCCUCUCACUCCCCAGCCCCACCCCUAAGUGCCCAAAGUGGGGAGGGACAAGGGAUUCUGGGAAGCUUGAGCCUCCCCCAAAGCAAUGUGAGUCCCAGAGCCCGC,0.401
AUUUUAAAGGCAAUUUAAGUUGCCUUUAGUUGACCGGUAAACUAAUCCAGUUGGAACAUACAUGCUUUUUUGAAGAAAUUACUUGAAUAAAAUAGUUUUCACAUUUUCAA,0.662
UCAUCAGGCCUUGGAGCAGUCACUGCUUUAUUCCGCAAAAAUUAUUUGGUAGGAAAUUUUUGGGAGAUCUGAUUUUCUUAUCCAAGUUUUGUAAAUAGUUGUUAUUUCUA,0.615
GCACUCUAGGGUGAACCAAGCUAUAAAAGCCCAUGCUUAAAUAAAAAUUAUGUCCAAAAGCCAUUGAGUUCAUUGGUCUUCAUUCAUUUUUAAUUAAAUUUUAUGUAAGA,0.342
ACUCUUUCCUUUGUGAGCUGUUAAUCCACAAUUACUGACCAUACUAAUAGUAAGUGUGAUUUGAUUCUAAAUAAUAGGGUAGGUUUGGCUAUAACAGAUGCUUUUAAAGC,0.374
UGUCUUCUUGUGUAUGGCAGGGCUGGGACUGCUGUCCCUUGUACAGUUUUCUGUCACUGGUGGGCACUGGACAGGCAUAGCAGACUCUCUUGUGGCCACACUAGGUUGUC,0.207
AACUCCCACCUUACAUGUCUCACACUAUCCCAUGGUUGGCAUUACACUCACUCCUGUUCCCUUAUUCUUCAUUCCCAGUAAUUCCCUACCAAAUGGUGGGGACCCUGAGC,0.646

# Block 5 — target: JUN, bZIP domain (human); technique: DHFR protein complementation; medium: yeast; reference: wild-type JUN-FOS pair; reading: higher = stronger binding
# Setting: single substitutions, most at no-binding floor
# Starting sequence: JUN, bZIP domain (human); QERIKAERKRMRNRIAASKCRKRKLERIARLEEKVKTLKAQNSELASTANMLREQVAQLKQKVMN
Variant,binding fitness [natural log]
N42P,-1.38
V35K,-1.31
L31N,-1.32
E32P,-1.38
Q41W,-1.36
L38R,-1.35
V35P,-1.24
I28N,-1.26
L52I,-1.36
L31I,-1.27
L45S,-1.22

# Block 6 — technique: protein-binding microarray; form: double-stranded DNA, one strand shown; medium: in vitro; tested at: not given; reading: higher = stronger binding
# Target: Protein C-ets-1 (ETS1, Homo sapiens, UniProt P14921, residues 1-441, full length assumed)
# Setting: k-mer, scored over probes, only values ≥0.25
# Construct (chain): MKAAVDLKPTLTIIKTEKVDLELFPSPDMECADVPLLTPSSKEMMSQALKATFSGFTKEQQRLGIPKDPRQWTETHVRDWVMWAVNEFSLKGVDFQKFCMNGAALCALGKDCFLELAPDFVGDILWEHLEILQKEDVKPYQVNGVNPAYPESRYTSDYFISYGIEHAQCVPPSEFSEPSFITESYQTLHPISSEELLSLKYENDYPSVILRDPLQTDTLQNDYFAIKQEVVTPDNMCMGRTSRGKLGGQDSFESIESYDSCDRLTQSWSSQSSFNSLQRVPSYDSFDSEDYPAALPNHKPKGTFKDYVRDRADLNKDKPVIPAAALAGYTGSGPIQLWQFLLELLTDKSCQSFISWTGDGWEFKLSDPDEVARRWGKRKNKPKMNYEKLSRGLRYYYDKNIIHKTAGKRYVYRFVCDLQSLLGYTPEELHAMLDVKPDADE
Strand,E-score
ACCGGACA,0.452
ACCCGGAT,0.404
CGGATGAG,0.43
CCGGATAA,0.433
CGGAAATC,0.475
GGACGGGA,0.289
GGAATTCC,0.343
ACCACTTC,0.282
CGTCCGGA,0.443
GCGTTTCC,0.424
CGGAAACG,0.477
CGGATATA,0.457
AGAACCGG,0.255
ACATATCC,0.301
CCCGGAAC,0.436
GCGACGGA,0.333
CGGCGGAA,0.439
CCCGCCCC,0.364
CCGGAACC,0.457
AAGGAAGA,0.326
CCGGCCGG,0.394
CGCATCCG,0.474
CTCAGGAA,0.298
AAACGGAA,0.423
ATTCCGGC,0.375

# Block 7 — technique: DHFR PCA, deep sequencing; medium: yeast; added: (+)-ABA 0.39 µM; reference: wild-type fitted maximum; reading: higher = stronger binding
# Target: ABI1, truncated, D143A, DHFR fusion (Arabidopsis thaliana)
# Setting: methotrexate growth selection, single substitutions
# Starting sequence: PYL1, truncated, DHFR fusion (Arabidopsis thaliana); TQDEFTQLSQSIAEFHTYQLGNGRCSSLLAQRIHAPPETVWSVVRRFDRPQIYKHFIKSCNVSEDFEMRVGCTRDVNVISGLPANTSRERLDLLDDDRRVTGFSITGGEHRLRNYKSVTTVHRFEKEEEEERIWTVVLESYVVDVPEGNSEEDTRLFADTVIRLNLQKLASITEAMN
Variant,relative binding score [%]
V145M,-26.1
T86Q,15.9
F66M,13.7
S80F,51.5
E128S,53.3
T173I,2.01
P37F,-4.41
T154E,-3.74
F124L,60.1
E125Q,65.6
V143A,8.79
D75F,41.7
Q167E,48.2
E129R,27.1
G148T,-29.9
Q10E,59.7

# Mixed results
Substance,target,assay,system,setting,how to read,quantity,value
"PhoQ, residues 284 288 289 292 302 303 SLGVVW","PhoP, residues 12 14 15 18 19 HLGGL (Escherichia coli, UniProt P23836)","Sort-seq, refers to: YFP reporter",E. coli,"PhoQ-PhoP variant library, added: 10 µM Mg2+","reference: high Mg2+ state, higher = stronger signaling",fold induction,18.3
